# Measured values of several laboratories.
# Parts stem from different laboratories: compare values within a part only.

# Sample 1 — method: protein binding microarray; molecule type: double-stranded DNA, one strand shown; sample: in vitro; concentration: not given; relative to: not given; reading: higher = stronger binding
# Target: Histone acetyltransferase KAT6A, both winged helices, GST fusion (KAT6A, Homo sapiens, UniProt Q92794, residues 1-181)
# Notes: 8-mer, flanks averaged, mean of 2 arrays, mostly near background
# Construct (chain): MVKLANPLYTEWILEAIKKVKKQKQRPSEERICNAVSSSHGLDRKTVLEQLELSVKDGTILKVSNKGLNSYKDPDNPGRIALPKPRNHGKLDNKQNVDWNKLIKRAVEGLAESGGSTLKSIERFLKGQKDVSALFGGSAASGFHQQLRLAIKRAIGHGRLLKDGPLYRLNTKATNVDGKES
Sequence,E-score
ACACTACG,0.169
CTACCCAG,-0.273
CGCCCGCG,0.319
CTGCGTGC,0.147
GCACTTCA,0.0541
AGTGGCTA,-0.135
GAAGCTGA,-0.0331
CTGGGAGC,0.00982
TCTCGGCA,0.178
TCCTCAAA,-0.0949
AAGACCGC,0.207
CAAGAAGA,-0.177
GGGCAAAC,-0.0296
CACTTTAC,-0.0396
AGCCTAGG,-0.171
CCTCTAAC,-0.148

# Sample 2 — method: RNA Bind-n-Seq; molecule type: RNA; sample: in vitro; concentration: 365 nM; relative to: no-protein control; reading: higher = stronger binding
# Target: RNA binding protein fox-1 homolog 2, RRM domain, GST-SBP tag (RBFOX2, Homo sapiens, UniProt O43251-10, residues 100-194)
# Notes: natural RNA segment, single round, ends assumed
# Target sequence (chain): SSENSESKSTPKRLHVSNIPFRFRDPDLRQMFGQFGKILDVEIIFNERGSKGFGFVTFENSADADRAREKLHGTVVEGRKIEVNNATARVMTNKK
Sequence,RBNS enrichment (R)
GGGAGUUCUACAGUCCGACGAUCCAGCUCUUGAAUUGCUCAUACAGAACAAUUCUGCUGGUGCUGGAGUCUGAAGAAUAUUUUCAUUUGCAUUUUAGUGGUUAGGGAGAGGAUAUAAGAUUAAUGGAAUGUAUUGGAAUUCUCGGGUGCCAA,10.4
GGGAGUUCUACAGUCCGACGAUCUUUUGGUGCUGUUGGCUACUUUAUCAAAAAAACAAAAAACAAAAAAACAAAAAACCCUUCAAUAGCAUCCUUGAGGAAAAGGAACAGCAGUUGACUGUAAGUGCUUCCCUUGGAAUUCUCGGGUGCCAA,1.09
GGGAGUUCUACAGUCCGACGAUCUCCAGGUGCACAGAGAGCCCUGCCACCGUCUUACCUCUGGGCUUUGGUGCUUAACACACAACACAGCUGCAGACCCUGCUGGAGGCCGAGGGCUCCAGGUGCUAUCUUAGUGGAAUUCUCGGGUGCCAA,0.342
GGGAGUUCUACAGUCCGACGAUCGGAGGAAGACGACGAUCAGAAAGCUGUGAAGGAUGAACUGUAGUGCAGAAGCCAGAUCUGGGCGCCUGAACCCAAAACCUCGGUGGGCCACGCUCCCAGCAGCCCACAUCUGGAAUUCUCGGGUGCCAA,0.337
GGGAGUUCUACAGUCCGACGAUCUCCCCUGCCCCACCUCACCCACCCAGAGAAGCACAGACCCCGCCAGGGGCAGGGGCCCACCGCACACCCUUGUCCCGGGCCUGUCUGGGACUGGCCUUCCCGGCUCAGCCUGGAAUUCUCGGGUGCCAA,0.737
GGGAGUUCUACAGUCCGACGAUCUUAUCCUAGUAUCUCAGUGUUCAUUCUUCUUGCCUUCAUAUUUUUUUCAAAGAAACAGCUGUGCUAAUGUCUUUGGUUUCCCGAUGAGUGUACACUACUGUAUAAUUUAUUGGAAUUCUCGGGUGCCAA,0.647
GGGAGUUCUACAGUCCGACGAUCUUUCUUGUGUCUUGUCUGUCAGAUGGCAGGAGGCCUGUAUCAGUAAAUUUGAGGAAAAUGUUCUCUCCUGGGCCAGCCUCACAGCUUGCGUUGGGUGUGUUGGAAUUGUUUGGAAUUCUCGGGUGCCAA,0.517
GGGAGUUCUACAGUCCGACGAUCCGGGAACCCAUUCACUUAGCGUUUGCUCCAGUAGCUUUCCCUCUGCUACCAAUGCAGAUAAACGCGGCUUGUUUUACUCAGGCAAGAGAAUGUGAAUAGUGCCAAGAAAAUGGAAUUCUCGGGUGCCAA,0.363
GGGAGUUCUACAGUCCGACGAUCACAGAGCAGCAUCUGAUGCCCUGUGGUGUUUGGCAUGUGCCCCCUGUCUACUGACCAAUCAGUGUGGCAUGAGGCCCACGCCACCCAAACCUUUCACUUUCCAAAGAGCUUGGAAUUCUCGGGUGCCAA,0.199

# Sample 3 — method: protein-binding microarray; molecule type: double-stranded DNA, one strand shown; sample: in vitro; concentration: 0.8 µM; notes: whole 60-bp probe, no competitor; reading: higher = stronger binding
# Target: Centromere-binding protein 1, full length, N-terminal tag (CBF1, Saccharomyces cerevisiae, UniProt P17106, residues 1-351)
# Chain of UniProt P17106 (whole entry, looked up): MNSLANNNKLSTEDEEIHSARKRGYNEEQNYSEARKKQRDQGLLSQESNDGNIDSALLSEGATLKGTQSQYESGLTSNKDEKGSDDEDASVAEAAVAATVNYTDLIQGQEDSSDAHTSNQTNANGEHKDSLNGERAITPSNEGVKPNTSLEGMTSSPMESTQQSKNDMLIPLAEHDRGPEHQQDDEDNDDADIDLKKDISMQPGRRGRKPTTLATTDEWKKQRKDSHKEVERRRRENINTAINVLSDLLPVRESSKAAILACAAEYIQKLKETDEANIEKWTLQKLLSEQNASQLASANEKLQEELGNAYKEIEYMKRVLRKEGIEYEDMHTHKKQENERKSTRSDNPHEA
Sequence,fluorescence intensity
CCTAACTACTATATCCATGTGATATAGCTTCGTACAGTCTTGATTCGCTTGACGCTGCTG,1160 a.u.
GAATGGGAACCGCATGACGTGGCGGCCTTGGCATAGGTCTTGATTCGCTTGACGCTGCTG,562 a.u.
CCTAACTACTATAACGTGGTTAGATAGCTTCGTACAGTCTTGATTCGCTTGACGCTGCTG,619 a.u.
CTAAGCGTAATTGATTTCGTGATAGTTCGATCCTTCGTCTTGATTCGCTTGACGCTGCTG,507 a.u.
GAATATATATCACATCACGCCAAGCTTACGCATTAGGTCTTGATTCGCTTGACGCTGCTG,704 a.u.
GAAATTCGTATGAAATTGGTGACGTTAATCTAATAGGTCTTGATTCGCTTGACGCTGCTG,515 a.u.
GAACGACGATTTGGTCACGAGAGCGAATTGAATTAGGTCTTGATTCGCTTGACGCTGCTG,2740 a.u.
CTAGACAGTGGCAGTGTCACCACCACCAATGATTTCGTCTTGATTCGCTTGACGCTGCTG,511 a.u.
GAATTGCAAAAATACAGGGTGATGCGTATAAGTTAGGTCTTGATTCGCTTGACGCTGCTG,526 a.u.
TGTACGAAGCTATATCACACCCTTATAGTAGTTAGGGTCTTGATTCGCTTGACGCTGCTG,555 a.u.
CTAAAAGAAAGGCAACACATGAAAGGAAGAAAATTCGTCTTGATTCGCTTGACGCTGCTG,556 a.u.
CTAGTAGTATTTTGTCACGTGATTTTGATCCAATTCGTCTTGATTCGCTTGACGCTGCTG,30700 a.u.
CTACTCAGAGCGCATCACGATCGGGAGTGTAAATTCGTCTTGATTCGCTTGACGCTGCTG,498 a.u.
CTATTTTTCCTCTGGCGCGTGAATAGCCCGCAGTTCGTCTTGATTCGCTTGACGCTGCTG,566 a.u.
CTAAATTGGTTCCATCACCTTCTTTTCTGGTGTTTCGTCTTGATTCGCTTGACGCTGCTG,562 a.u.
GAAGTCCAAACATGACTCACGAGTGGAGTCAAGTAGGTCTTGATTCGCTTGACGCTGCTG,549 a.u.
CTATAAAGACAAAGGCATGTGAGAAAAGTAAGTTTCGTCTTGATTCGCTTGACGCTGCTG,593 a.u.
CTAACCTTTTGAAGTGGTGACGTTACCGCTCTTTTCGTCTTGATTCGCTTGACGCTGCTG,503 a.u.
GAATAATTTTGAGTTCACCTGTTGATGTGGTGCTAGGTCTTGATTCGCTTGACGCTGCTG,518 a.u.
TGTACGAAGCTATTTCATGCACGTATAGTAGTTAGGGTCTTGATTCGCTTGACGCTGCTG,534 a.u.

# Sample 4 — method: RNA Bind-n-Seq; molecule type: RNA; sample: in vitro; concentration: 100 nM; relative to: input RNA pool; reading: higher = stronger binding
# Target: RING finger protein unkempt homolog, zinc fingers 1-6, SBP tag (UNK, Homo sapiens, UniProt Q9C0B0, residues 30-357)
# Chain of UniProt Q9C0B0 (30-357, looked up): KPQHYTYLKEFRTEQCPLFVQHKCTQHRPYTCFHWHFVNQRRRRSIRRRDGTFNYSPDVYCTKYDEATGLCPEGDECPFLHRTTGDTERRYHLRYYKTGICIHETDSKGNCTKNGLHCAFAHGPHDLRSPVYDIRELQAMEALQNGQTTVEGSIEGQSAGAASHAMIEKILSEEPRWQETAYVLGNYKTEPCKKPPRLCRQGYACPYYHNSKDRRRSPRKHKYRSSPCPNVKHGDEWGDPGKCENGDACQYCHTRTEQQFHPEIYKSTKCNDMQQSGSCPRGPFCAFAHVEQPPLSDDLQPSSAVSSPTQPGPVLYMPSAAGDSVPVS
# Notes: RNA with constant flanks, vertebrate orthologous sites, ends assumed
Sequence,bound/input enrichment [ratio]
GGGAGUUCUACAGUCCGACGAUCAGUAGUAGAAUGGACCGUUUCCACAUAAAAGGCAAGGGAAAACUUGGAAGUGAUUGGGACUAUCCCCAGUGAGUACCCACAUUUCAUUUCACUUCUACACAUGGUCACCUUCUAAGGGGGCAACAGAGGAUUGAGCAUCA,0.382
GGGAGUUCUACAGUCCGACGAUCACCUUAAAUAGAUGGUAGUAUAUGUUUCAUAAAGAAGUCUUUAUAAUUUUGUUUGGCAUACAGUAUUUUGGAAUUUGUAUAAUGAGGAUGUUUAGAAGCCACAUACAUGGCUUUUUUUAACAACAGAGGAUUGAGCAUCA,0.66
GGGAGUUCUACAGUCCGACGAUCCAGCGGAUUCACUAAUUGGAAGAGCUGCACAUAUAGCUGUUCUUGAUUCAGAAAUAUUUUUAGAAAAAUUCUUUUUAGUUGCUGCCCUCAAAUACUUCCAGUAGGAUAAAAACAUUGCUACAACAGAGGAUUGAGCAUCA,1.52
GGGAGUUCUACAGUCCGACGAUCUUUAUUGUACUAUCUAUGUAGUCUGAGUUCUUGUUCAGCCAUGGAGUUGCCAUGAUGCACCAAUAAAAUUAUACAGUGUAGUUUGAAAACACCUGCUACCUGGAGCUAUCAGUUUUGCUUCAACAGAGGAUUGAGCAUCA,0.451
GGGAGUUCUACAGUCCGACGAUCGUGACUUUGGACGUCCGCUCGGCCGGGUUGCCGAAGCUGCCUGGUGUGUGUCGUGCGCUCGUUCCGCUGUCUGUGGAGGUAGGCCUCUGCCGCAAACAUGCUCCGUCAGAUCCUCGGGCACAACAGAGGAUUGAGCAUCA,0.344
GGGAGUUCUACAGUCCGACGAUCGGGGGGUGACAGCUGGCCAGGCCUUUCUGCCUACAAUGACAACAGUCCUAGAUCUCACCAGAGUCCAUCUCCUGUUCCCACCCCCACCAGCCACAGUUCCUCUCGCUCUGAUGUCGCUCUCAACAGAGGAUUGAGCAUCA,1.47
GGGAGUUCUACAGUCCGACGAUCCAGCUGAUUCGCUCAUUGGAAGAGCUGCUCAUAUUGCAGUUCUUGAUUCUGAAAUAUUUUUAGAAAAGUUCUUUCUGGUUGCUGCCCUAAAAUACUUCCAAUAGGAGAGGAGCAUUAUGACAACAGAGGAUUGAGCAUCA,0.869
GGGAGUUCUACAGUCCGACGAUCUUCAGUCCCCUGGGCCGGGACAGAUUUUUUUUUAACGUCUUGAAAUUUAAACUGUGCUUGUAGGAGACUGUAACCUUUUUGUCUUUUUUUUUAAACCACCUCUGCCUCCAGUGGCUGUGACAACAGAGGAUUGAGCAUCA,0.679
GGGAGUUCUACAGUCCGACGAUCAGUUUGUAUGUACAUUAUUCACAUUCCUCUCUGUUGUGUUUGGGGGAAAGAAAGACAUUUUAGCCUUUUUUAAAGGUUAUUGAUUUAAUUUCAUGUUAUUUGGUUGCAUGAAGUUGCCCUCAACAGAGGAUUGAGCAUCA,0.403
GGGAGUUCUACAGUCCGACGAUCUUGAAAACUACUGUGUGAAACAUGUCUAUCCAGAGAAAUAACAUUCUAAAAAUAACAAUUUAGCUACAGUCUUUUAAAGUACUGAAUUGUAUGUCAAGAAAUUAAAGUGAAUUUGAGAUACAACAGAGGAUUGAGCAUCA,0.323
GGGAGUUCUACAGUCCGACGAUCGUUAGGUCAUGACCCUUACAGGUUAGGCCAUGAUGCCUACAGGUUAGGGCAAGACCCUUAUAGAUUAGGCCAUGAUCCCUACAGACUAACUCCUGAUCCGUAUAGGAUGUCUCCUAGACCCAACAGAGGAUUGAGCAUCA,0.228

# Some of these lines once more (sample 1):
Sequence,E-score
CAAGAAGA,-0.177
GGGCAAAC,-0.0296
TCTCGGCA,0.178
